Experimental data gathered from unrelated publications.
Compare with care: the assays were run in different laboratories. “And” joins repeats or separate records; there may be more than shown. Numbers after ± are the reported error. ≈ marks a conversion by molar mass, not a printed value.

CC(=O)N[C@H](CCCCNC(=O)C(C)F)C(=O)N[C@@H](CS)C(=O)N[C@@H](CS)C(=O)N[C@@H](CCC(=O)O)C(=O)N[C@@H](Cc1c[nH]cn1)C(=O)N[C@H](Cc1ccccc1)C(=O)N[C@@H](CCCNC(=N)N)C(=O)N[C@@H](Cc1c[nH]c2ccccc12)C(=O)N[C@@H](CS)C(=O)N[C@@H](CCCNC(=N)N)C(=O)N1CCC[C@H]1C(=O)N[C@H](C(N)=O)C(C)C (stereo partly shown) [fluorine-18 labelled]: “tumour to blood ratio” 3.11 ± 1.3 (Foxn1 nude mouse, A375M xenograft; intravenous, 2 h).
For CN[C@@](C)(C[18F])C(=O)O, the tissue uptake was 0.3 ± 0.1 %ID/g (SCID mouse SK-OV-3 xenograft, brain; 15 min, post injection).
For CC[C@H](C)[C@H](NC(=O)[C@H](C)NC(=O)CNC(=O)[C@H](Cc1ccccc1)NC(=O)[C@H](CC(N)=O)NC(=O)[C@H](CC(N)=O)NC(=O)[C@H](CO)NC(=O)[C@H](CO)NC(=O)[C@H](Cc1c[nH]cn1)NC(=O)[C@@H](NC(=O)[C@H](CC(C)C)NC(=O)[C@H](Cc1ccccc1)NC(=O)[C@H](CC(N)=O)NC(=O)[C@H](C)NC(=O)[C@H](CC(C)C)NC(=O)[C@H](CCCNC(=N)N)NC(=O)[C@H](CCC(N)=O)NC(=O)[C@@H](NC(=O)[C@H](C)NC(=O)[C@@H]1CSSC[C@H](NC(=O)[C@@H](N)CCCCN)C(=O)N[C@@H](CC(N)=O)C(=O)N[C@@H]([C@@H](C)O)C(=O)N[C@@H](C)C(=O)N[C@@H]([C@@H](C)O)C(=O)N1)[C@@H](C)O)C(C)C)C(=O)N[C@@H](CC(C)C)C(=O)N[C@@H](CO)C(=O)N[C@@H](CO)C(=O)N[C@H](C(=O)N[C@@H](CC(N)=O)C(=O)N[C@H](C(=O)NCC(=O)N[C@@H](CO)C(=O)N[C@@H](CC(N)=O)C(=O)N[C@H](C(=O)N[C@@H](Cc1ccc(O)cc1)C(N)=O)[C@@H](C)O)C(C)C)[C@@H](C)O, “half-time of amyloid formation” read 6.4 ± 1.6 h (thioflavin T fluorescence; phosphate buffer; 16 µM, pH 7.4, 25 °C).
CSCC[C@@H]1NC(=O)[C@H](CC(=O)O)NC(=O)CNC(=O)[C@H](CCCNC(=N)N)NC(=O)[C@H](C)NC(=O)[C@H](CCC(=O)O)NC(=O)[C@H](CCCNC(=N)N)NC(=O)[C@@H]2CSSC[C@@H]3NC(=O)[C@H](CO)NC(=O)[C@H]([C@@H](C)O)NC(=O)[C@@H]4CCCN4C(=O)[C@H](C)NC(=O)[C@H](Cc4c[nH]c5ccccc45)NC(=O)[C@H](CC(=O)O)NC(=O)CNC(=O)[C@H](CCCNC(=N)N)NC(=O)CNC(=O)[C@H](CCC(N)=O)NC(=O)[C@@H]4CCCN4C(=O)[C@@H](NC(=O)CNC(=O)C(C)F)CSSC[C@H](NC(=O)CNC(=O)[C@H](C)NC(=O)[C@H](CC(C)C)NC(=O)[C@H](CSSC[C@@H](C(=O)NCC(N)=O)NC(=O)[C@H]([C@@H](C)O)NC(=O)[C@H](CCCNC(=N)N)NC(=O)[C@@H]4CCCN4C1=O)NC(=O)[C@H](CC(=O)O)NC(=O)[C@H](CO)NC(=O)[C@H](CC(=O)O)NC(=O)[C@H](CCC(N)=O)NC(=O)[C@H](CO)NC3=O)C(=O)N[C@@H](C(C)C)C(=O)N2 (stereo partly shown) [fluorine-18 labelled] gave a tissue uptake of 0.09 %ID/g (nude mice U-87 MG xenograft, brain; intravenous, 1 h).
CC[C@H](C)[C@H](NC(=O)[C@H](CO)NC(=O)[C@H](C)NC(=O)[C@@H](NC(=O)CNC(=O)[C@H](CO)NC(=O)[C@@H](NC(=O)[C@@H](NC(=O)[C@H](Cc1c[nH]cn1)NC(=O)[C@@H]1CCCN1C(=O)[C@@H](NC(=O)[C@H](CC(C)C)NC(=O)[C@H](CO)NC(=O)[C@H](CC(C)C)NC(=O)[C@@H](N)Cc1ccccc1)[C@@H](C)CC)[C@@H](C)CC)C(C)C)C(C)C)C(=O)N[C@@H](C)C(=O)N[C@@H](CCCCN)C(=O)N[C@@H](Cc1c[nH]cn1)C(=O)N[C@@H](Cc1ccccc1)C(N)=O has a concentration found of 53 ng/mL (UPLC-MS/MS; rat plasma; 0.05 µg/mL, 4 h, room temperature, short-term stability).
For COc1ccc(C[C@@H]2NC(=O)[C@H]([C@@H](C)O)NC(=O)[C@@H]3[C@@H]4CCN3C(=O)[C@@H]3Cc5cn(c6ccc(F)cc56)CCCCCCN(Cc5ccc(cc5)CCNC(=O)[C@]5(C)CCCN5C2=O)C(=O)CCC(=O)N[C@@H](C)C(=O)N[C@H](CNC(=O)CCCCC[N+](C)(C)C)C(=O)N[C@@H](Cc2cccc(c2)CNC(=O)CO4)C(=O)N3)cc1, the Tmax was 1.5 h (fasted healthy humans, plasma; oral, 10 mg single dose, with 1800 mg Labrasol, median).
With CC[C@H](C)[C@H](NC(=O)[C@@H](N)CCCNC(=N)N)C(=O)N[C@H](C(=O)N1CCC[C@H]1C(=O)N[C@@H](C)C(N)=O)C(C)C the Tmax was 0.05 h (CD-1 mouse, female, plasma; intravenous, 60 mg/kg daily, day 14, infused over 1 min).
Oc1cc(Cl)c(-c2cc(Cl)ccc2Cl)cc1Cl gave a serum concentration of 164 ± 27 ng/g (Sprague-Dawley rat, male, serum; subcutaneous implant, 10% in implant, 28 d, high dose group).
The mortality of CN(C(=O)n1cnc(-c2ccc[n+]([O-])c2)c1)C1CCCCC1 is reported as 43.3% (SHRSP rat; oral, 30 mg/kg daily, 45 days, stroke-prone high-salt diet).
The AUC(0-8 h) of CNC(=O)c1ccc(-c2cnn3ccc(C(=O)N(C)c4ccc(Cl)c(C(=O)OC)c4)cc23)cc1 is reported as 111 ng·h/mL (beagle dogs, both sexes, plasma; oral, 50 mg/kg/day, day 1, 2-week toxicology study).
With [123I]c1cncc(OC[C@@H]2CCN2)c1 the tissue/plasma ratio was 53.8 (SPECT; human, thalamus; intravenous bolus plus infusion, 7.6 mCi; relative to: plasma).
For C=C(C)[C@@H]1CCC(C)=C[C@H]1c1c(O)cc(CCCCC)cc1O, the average Cmax was 2.8 ± 2.2 ng/mL (human, plasma; oral, 1.5 to 20 mg, low dose).
Cc1cc(C(C#N)c2ccc(Cl)cc2)c(Cl)cc1NC(=O)c1cc(I)cc(I)c1O (stereo not shown) has an elimination half-life of 446 h (HPLC, non-compartmental; Corriedale lambs, parasitized, plasma; oral, 10 mg/kg, added: moxidectin 0.2 mg/kg oral).
Under serum concentration, O=c1[nH]c(=O)[nH]c(=O)[nH]1 is recorded as “not detected” (LC-MS/MS; rat, non-pregnant female, serum; oral, 1000 mg/kg/day, 10 days, LOD 0.4 µg/mL).
Under “Cmax steady state”, CCCCCOc1ccc(-c2ccc(-c3ccc(C(=O)N[C@H]4C[C@@H](O)[C@@H](O)NC(=O)[C@@H]5[C@@H](O)[C@@H](C)CN5C(=O)[C@H]([C@@H](C)O)NC(=O)[C@H]([C@H](O)[C@@H](O)c5ccc(O)cc5)NC(=O)[C@@H]5C[C@@H](O)CN5C(=O)[C@H]([C@@H](C)O)NC4=O)cc3)cc2)cc1 is recorded as 5200 ng/mL (human infants, plasma; intravenous, 1.5 mg/kg/day after 3 mg/kg loading).
The 2-mercaptoethanol concentration of `AAICTHLEV-OH (C-acid)` is reported as ≥ 1 mM (cysteine reduced state, reversed-phase HPLC; peptide, PBS; 48 h, pH 7.2, room temperature).
CC(=O)O[C@H]1C(=O)[C@@]2(C)[C@H]([C@H](OC(=O)c3ccccc3)[C@]3(O)C[C@H](OC(=O)[C@H](O)[C@@H](NC(=O)c4ccccc4)c4ccccc4)C(C)=C1C3(C)C)[C@]1(OC(C)=O)CO[C@@H]1C[C@@H]2O has a creatinine of 145 µmol/L and 196 µmol/L and 153 µmol/L (BALB/c mouse, serum; intraperitoneal, 10 mg/kg every three days, 60 days).
O[C@H]1CCCN[C@@H]1CCCn1cnc2c(Cl)c(Cl)ccc21 gave an AUC of 1480 ng·h/mL (human, plasma; oral, 300 mg, single dose, healthy volunteers).
For CC[C@H](NC(=O)OC(C)(C)C)C(=O)N[C@H](C(=O)N[C@@H](CC(C)C)C(=O)N[C@@H](CCC(N)=O)C(=O)Nc1ccc2c(C)cc(=O)oc2c1)C(C)(C)C, the solubility was 19.3 ± 2.6 µM (≈ 13.8 µg/mL) (shake-flask HPLC; 1 h, pH 7.2, 37 °C, 5% DMSO, 0.01% Triton X-100).
The remaining amount of CCNc1nc(Cl)nc(NC(C)C)n1 is reported as 64.23 ± 0.01% (LC-MS/MS; herbicide solution; 2 h, 40 °C, added: 254 nm UV exposure).
CS(=O)(=O)CCCn1c(Cn2c(=O)n(CC(F)(F)F)c3ccncc32)cc2cc(Cl)ccc21 — result for “patients with high aPTT”: 0% (RSV-infected infants; concentration not given, mid dose cohorts).
O=C(CC(=O)c1ccccc1)c1ccccc1 gave a Tmax of 3.3 h (Sprague-Dawley rat, male, plasma; oral, 250 mg/kg, regular emulsion).

A few entries again:
The 2-mercaptoethanol concentration of `AAICTHLEV-OH (C-acid)` is reported as ≥ 1 mM (cysteine reduced state, reversed-phase HPLC; peptide, PBS; 48 h, pH 7.2, room temperature).
CC(=O)O[C@H]1C(=O)[C@@]2(C)[C@H]([C@H](OC(=O)c3ccccc3)[C@]3(O)C[C@H](OC(=O)[C@H](O)[C@@H](NC(=O)c4ccccc4)c4ccccc4)C(C)=C1C3(C)C)[C@]1(OC(C)=O)CO[C@@H]1C[C@@H]2O has a creatinine of 145 µmol/L and 196 µmol/L and 153 µmol/L (BALB/c mouse, serum; intraperitoneal, 10 mg/kg every three days, 60 days).
